Experimental data of several laboratories.
Parts stem from different laboratories: compare values within a part only. “And” joins repeats or separate records; there may be more than shown.
Chain of UniProt O76039 (whole entry, looked up): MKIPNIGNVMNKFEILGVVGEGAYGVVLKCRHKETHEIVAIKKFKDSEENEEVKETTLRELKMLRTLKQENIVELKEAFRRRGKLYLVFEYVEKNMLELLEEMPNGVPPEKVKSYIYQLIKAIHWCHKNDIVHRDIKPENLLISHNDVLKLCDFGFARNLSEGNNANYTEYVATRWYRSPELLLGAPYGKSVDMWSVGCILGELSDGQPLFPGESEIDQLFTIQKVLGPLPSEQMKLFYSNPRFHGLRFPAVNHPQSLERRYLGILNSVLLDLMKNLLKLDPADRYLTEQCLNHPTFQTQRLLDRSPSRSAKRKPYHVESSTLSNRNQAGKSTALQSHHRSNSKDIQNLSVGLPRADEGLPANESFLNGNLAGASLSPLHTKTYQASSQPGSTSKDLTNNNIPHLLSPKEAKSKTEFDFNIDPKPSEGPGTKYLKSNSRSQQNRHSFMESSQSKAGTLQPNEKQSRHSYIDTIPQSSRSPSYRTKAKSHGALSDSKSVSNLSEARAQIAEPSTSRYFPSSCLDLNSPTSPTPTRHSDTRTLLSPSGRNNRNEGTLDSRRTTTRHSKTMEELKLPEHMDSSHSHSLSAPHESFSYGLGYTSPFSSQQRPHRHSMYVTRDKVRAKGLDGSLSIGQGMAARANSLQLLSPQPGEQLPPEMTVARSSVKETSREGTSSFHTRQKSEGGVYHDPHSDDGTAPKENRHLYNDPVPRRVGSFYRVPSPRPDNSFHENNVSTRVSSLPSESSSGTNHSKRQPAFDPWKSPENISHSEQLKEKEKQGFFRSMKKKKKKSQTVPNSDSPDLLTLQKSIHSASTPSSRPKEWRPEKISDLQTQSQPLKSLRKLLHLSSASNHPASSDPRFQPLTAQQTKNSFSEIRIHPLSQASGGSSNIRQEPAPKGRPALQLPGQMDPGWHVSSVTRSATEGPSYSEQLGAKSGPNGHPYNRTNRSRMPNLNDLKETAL
Chain of UniProt P54762 (whole entry, looked up): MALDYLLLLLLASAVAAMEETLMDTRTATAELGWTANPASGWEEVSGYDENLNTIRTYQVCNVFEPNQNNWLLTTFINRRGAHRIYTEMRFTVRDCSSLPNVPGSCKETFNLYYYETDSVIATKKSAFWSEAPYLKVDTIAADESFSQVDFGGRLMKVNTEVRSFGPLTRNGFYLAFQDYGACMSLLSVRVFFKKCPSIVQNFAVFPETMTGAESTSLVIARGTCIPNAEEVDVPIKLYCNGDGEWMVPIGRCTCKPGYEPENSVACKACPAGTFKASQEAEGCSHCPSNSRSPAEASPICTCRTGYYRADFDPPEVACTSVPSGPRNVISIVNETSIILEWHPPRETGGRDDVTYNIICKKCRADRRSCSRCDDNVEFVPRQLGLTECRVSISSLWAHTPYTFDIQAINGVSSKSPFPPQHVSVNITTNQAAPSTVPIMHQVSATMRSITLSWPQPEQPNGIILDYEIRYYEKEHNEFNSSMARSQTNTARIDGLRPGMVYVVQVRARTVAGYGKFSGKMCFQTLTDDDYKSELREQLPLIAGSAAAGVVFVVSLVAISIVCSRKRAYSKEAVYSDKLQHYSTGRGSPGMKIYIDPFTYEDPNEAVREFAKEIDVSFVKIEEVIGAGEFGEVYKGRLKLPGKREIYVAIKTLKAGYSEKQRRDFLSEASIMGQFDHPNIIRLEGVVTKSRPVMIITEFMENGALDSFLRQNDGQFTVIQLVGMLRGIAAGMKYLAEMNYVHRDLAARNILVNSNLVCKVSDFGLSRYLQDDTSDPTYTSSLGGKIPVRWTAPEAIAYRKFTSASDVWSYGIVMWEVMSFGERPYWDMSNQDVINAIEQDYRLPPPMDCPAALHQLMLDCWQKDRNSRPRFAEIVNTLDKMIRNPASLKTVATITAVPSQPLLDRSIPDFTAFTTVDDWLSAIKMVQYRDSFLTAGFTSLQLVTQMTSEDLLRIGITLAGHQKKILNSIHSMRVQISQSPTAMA
Chain of UniProt Q13976 (whole entry, looked up): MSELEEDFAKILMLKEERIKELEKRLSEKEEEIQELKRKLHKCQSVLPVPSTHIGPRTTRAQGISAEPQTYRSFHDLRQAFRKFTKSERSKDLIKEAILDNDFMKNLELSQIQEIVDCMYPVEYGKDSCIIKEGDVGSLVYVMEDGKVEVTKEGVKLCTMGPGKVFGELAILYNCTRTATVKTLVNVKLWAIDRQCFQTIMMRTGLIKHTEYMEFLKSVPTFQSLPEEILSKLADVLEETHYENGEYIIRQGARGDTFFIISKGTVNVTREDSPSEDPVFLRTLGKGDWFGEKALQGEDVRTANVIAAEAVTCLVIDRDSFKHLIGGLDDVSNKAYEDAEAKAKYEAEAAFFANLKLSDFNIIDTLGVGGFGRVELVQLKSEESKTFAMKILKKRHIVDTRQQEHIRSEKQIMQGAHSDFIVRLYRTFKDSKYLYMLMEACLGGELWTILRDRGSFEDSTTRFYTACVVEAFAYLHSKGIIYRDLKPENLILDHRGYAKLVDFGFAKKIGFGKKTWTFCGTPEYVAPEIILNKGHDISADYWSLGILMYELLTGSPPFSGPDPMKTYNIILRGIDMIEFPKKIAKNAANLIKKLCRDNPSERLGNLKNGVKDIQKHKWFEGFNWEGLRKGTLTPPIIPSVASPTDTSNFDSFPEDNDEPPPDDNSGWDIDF
Chain of UniProt P22455 (whole entry, looked up): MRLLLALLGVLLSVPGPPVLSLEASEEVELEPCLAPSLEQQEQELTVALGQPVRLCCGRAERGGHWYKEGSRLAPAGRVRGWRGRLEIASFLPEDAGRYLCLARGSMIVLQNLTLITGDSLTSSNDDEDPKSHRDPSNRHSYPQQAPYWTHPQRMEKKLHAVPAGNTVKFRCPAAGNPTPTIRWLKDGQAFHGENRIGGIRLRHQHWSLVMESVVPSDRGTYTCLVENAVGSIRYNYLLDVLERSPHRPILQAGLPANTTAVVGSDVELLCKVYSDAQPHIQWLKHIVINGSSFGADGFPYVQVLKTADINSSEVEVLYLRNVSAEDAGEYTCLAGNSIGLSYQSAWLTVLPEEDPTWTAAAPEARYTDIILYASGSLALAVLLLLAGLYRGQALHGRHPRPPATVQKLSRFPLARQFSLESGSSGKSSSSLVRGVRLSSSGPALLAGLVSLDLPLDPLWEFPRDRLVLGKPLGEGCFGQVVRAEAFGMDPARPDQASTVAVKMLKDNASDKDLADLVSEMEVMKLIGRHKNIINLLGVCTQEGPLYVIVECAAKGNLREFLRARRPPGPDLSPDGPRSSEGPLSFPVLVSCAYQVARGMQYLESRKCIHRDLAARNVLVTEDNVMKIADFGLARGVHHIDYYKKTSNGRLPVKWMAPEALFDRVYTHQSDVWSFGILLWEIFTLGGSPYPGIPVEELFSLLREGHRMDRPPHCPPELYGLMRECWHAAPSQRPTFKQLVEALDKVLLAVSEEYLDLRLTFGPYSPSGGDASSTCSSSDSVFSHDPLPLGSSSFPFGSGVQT
Chain of UniProt Q8NG66 (whole entry, looked up): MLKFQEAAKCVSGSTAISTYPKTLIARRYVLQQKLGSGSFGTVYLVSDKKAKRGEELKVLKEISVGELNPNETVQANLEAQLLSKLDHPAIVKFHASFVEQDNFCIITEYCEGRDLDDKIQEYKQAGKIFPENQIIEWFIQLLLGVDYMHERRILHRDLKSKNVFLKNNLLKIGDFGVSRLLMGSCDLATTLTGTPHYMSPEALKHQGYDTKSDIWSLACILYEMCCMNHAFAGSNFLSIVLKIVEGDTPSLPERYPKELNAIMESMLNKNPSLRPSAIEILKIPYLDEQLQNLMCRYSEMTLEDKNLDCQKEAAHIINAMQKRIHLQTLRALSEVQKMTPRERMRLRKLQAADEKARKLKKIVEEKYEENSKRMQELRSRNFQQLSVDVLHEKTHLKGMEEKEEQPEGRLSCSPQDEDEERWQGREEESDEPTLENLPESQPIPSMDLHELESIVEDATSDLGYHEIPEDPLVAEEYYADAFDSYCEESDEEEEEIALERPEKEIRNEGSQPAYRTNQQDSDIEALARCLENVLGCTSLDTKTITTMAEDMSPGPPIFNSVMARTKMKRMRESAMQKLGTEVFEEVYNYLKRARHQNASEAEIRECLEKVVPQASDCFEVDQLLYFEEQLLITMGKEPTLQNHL

Block 1
Target: Protein max, full length (MAX, Homo sapiens, UniProt P61244-2, residues 1-151)
Method: protein-binding microarray
Molecule type: double-stranded DNA, one strand shown
Sample: in vitro
Concentration: not given
Setting: k-mer, scored over probes, only values ≥0.25
Reading: higher = stronger binding
For `ACGTGGAT`, the E-score was 0.426.
`AGCATGGC` has an E-score of 0.426.
The E-score of `CTCGTGCA` is reported as 0.402.
`CATGGTGG` gave an E-score of 0.349.
`ACGTGTCG` gave an E-score of 0.438.
With `ATGTACAC` the E-score was 0.262.
`CATCACAC` gave an E-score of 0.298.
`ACATGTCC` has an E-score of 0.35.

Block 2
Target: SRSF protein kinase 2 (SRPK2, Homo sapiens, UniProt P78362)
Chain of UniProt P78362 (whole entry, looked up): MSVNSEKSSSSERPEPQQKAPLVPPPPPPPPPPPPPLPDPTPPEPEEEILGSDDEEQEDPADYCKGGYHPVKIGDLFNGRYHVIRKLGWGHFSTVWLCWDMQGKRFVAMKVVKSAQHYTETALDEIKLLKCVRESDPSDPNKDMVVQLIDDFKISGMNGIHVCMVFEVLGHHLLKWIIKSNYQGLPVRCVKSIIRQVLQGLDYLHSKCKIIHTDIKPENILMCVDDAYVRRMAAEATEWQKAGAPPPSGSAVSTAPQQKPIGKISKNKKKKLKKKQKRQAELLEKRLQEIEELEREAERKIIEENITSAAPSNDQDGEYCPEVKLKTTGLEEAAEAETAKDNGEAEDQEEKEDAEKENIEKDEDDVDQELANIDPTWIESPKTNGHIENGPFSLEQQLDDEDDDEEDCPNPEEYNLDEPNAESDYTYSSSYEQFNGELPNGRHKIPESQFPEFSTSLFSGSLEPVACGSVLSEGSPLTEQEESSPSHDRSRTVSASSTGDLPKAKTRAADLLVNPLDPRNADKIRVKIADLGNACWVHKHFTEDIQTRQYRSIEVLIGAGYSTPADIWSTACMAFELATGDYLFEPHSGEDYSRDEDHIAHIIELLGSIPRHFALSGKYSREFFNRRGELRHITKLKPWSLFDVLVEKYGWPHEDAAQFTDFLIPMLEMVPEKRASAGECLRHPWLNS
Observed: enzyme activity
Action: inhibitor
Concentration: 0.5 µM
Reference: control
O=Nc1c(-c2c(O)[nH]c3ccccc23)[nH]c2ccccc12 has a remaining activity of 91.3%.
With CC(C)n1cnc2c(Nc3cccc(Cl)c3)nc(NCCO)nc21 the remaining activity was 37.1%.
CC(C)N(CCC(=O)c1ccc2ccccc2c1)Cc1ccccc1 has a remaining activity of 99.1%.
With N#CC(c1ccnc(NCCc2cccnc2)n1)c1nc2ccccc2s1 (stereo not drawn) the remaining activity was 97.1%.

Block 3
SMILES: O=C(Nc1cccnn1)N1CC(C/C=C/c2cncc(Oc3ccc(C(F)(F)F)cn3)n2)C1
Observed: cell-free assay
Method: competition with immobilised ligand
Concentration: 1 µM
It gave 99% for remaining binding (ERBB3 (Homo sapiens, UniProt P21860)).
NEK11 (Homo sapiens, UniProt Q8NG66) — remaining binding: 100%.
It gave 99% for remaining binding (DDR1 (Homo sapiens, UniProt Q08345)).
The remaining binding was 100% (TNK2 (Homo sapiens, UniProt Q07912)).
It gave 100% for remaining binding (PIK3CA (Homo sapiens, UniProt P42336, H1047Y)).
For CDKL1 (Homo sapiens, UniProt Q00532): remaining binding read 100%.
The remaining binding was 100% (EGFR (Homo sapiens, UniProt P00533, L861Q)).
For EGFR (Homo sapiens, UniProt P00533, del752-759): remaining binding read 100%.
CDKL5 (Homo sapiens, UniProt O76039) — remaining binding: 73%.
PRKG1 (Homo sapiens, UniProt Q13976) — remaining binding: 100%.
It gave 59% for remaining binding (KIT (Homo sapiens, UniProt P10721, A829P)).
The remaining binding was 100% (Tyrosine-protein kinase ABL1, non-phosphorylated (ABL1, Homo sapiens, UniProt P00519, H396P)).
It gave 88% for remaining binding (CSNK1A1 (Homo sapiens, UniProt P48729)).
For EPHB1 (Homo sapiens, UniProt P54762): remaining binding read 100%.
FGFR4 (Homo sapiens, UniProt P22455) — remaining binding: 100%.

Single results of other studies
For Cc1cc(O)c(C(=O)N[C@@H](C(=O)N[C@@H]2C(=O)N3C(C(=O)O)=C(CSc4nnnn4C)CS[C@H]23)c2ccc(O)cc2)cn1, “nuclear SOX9 intensity” read 90.3 % of DMSO (mouse MPNST tumor cells; high-content immunofluorescence imaging, item: nuclear SOX9; 10 µM, 12 h, mean of 2 replicates; reference: DMSO control, higher = more nuclear SOX9).
With `PhoQ, residues 284 288 289 292 302 303 TSTLRA` the fold induction was 7.68 (PhoP, residues 12 14 15 18 19 NHFIF (Escherichia coli, UniProt P23836); Sort-seq, item: YFP reporter; E. coli; PhoQ-PhoP variant library, together with: 10 µM Mg2+; reference: high Mg2+ state, higher = stronger signaling).
Under “nuclear SOX9 intensity”, COc1cc(-c2ccc(=O)[nH]n2)ccc1OC(F)F is recorded as 110 % of DMSO and 106 % of DMSO (mouse MPNST tumor cells; high-content immunofluorescence imaging, item: nuclear SOX9; 10 µM, 12 h, mean of 2 replicates; reference: DMSO control, higher = more nuclear SOX9).

A few entries again (single results of other studies):
With `PhoQ, residues 284 288 289 292 302 303 TSTLRA` the fold induction was 7.68 (PhoP, residues 12 14 15 18 19 NHFIF (Escherichia coli, UniProt P23836); Sort-seq, item: YFP reporter; E. coli; PhoQ-PhoP variant library, together with: 10 µM Mg2+; reference: high Mg2+ state, higher = stronger signaling).
For Cc1cc(O)c(C(=O)N[C@@H](C(=O)N[C@@H]2C(=O)N3C(C(=O)O)=C(CSc4nnnn4C)CS[C@H]23)c2ccc(O)cc2)cn1, “nuclear SOX9 intensity” read 90.3 % of DMSO (mouse MPNST tumor cells; high-content immunofluorescence imaging, item: nuclear SOX9; 10 µM, 12 h, mean of 2 replicates; reference: DMSO control, higher = more nuclear SOX9).
Under “nuclear SOX9 intensity”, COc1cc(-c2ccc(=O)[nH]n2)ccc1OC(F)F is recorded as 110 % of DMSO and 106 % of DMSO (mouse MPNST tumor cells; high-content immunofluorescence imaging, item: nuclear SOX9; 10 µM, 12 h, mean of 2 replicates; reference: DMSO control, higher = more nuclear SOX9).
